Measured values pooled from the literature.
Numbered parts are unrelated; each lists some results of a single study.

Block 1
Target: Sal-like protein 4, full length isoform A (SALL4, Homo sapiens, UniProt Q9UJQ4, residues 1-1053)
Chain of UniProt Q9UJQ4 (whole entry, looked up): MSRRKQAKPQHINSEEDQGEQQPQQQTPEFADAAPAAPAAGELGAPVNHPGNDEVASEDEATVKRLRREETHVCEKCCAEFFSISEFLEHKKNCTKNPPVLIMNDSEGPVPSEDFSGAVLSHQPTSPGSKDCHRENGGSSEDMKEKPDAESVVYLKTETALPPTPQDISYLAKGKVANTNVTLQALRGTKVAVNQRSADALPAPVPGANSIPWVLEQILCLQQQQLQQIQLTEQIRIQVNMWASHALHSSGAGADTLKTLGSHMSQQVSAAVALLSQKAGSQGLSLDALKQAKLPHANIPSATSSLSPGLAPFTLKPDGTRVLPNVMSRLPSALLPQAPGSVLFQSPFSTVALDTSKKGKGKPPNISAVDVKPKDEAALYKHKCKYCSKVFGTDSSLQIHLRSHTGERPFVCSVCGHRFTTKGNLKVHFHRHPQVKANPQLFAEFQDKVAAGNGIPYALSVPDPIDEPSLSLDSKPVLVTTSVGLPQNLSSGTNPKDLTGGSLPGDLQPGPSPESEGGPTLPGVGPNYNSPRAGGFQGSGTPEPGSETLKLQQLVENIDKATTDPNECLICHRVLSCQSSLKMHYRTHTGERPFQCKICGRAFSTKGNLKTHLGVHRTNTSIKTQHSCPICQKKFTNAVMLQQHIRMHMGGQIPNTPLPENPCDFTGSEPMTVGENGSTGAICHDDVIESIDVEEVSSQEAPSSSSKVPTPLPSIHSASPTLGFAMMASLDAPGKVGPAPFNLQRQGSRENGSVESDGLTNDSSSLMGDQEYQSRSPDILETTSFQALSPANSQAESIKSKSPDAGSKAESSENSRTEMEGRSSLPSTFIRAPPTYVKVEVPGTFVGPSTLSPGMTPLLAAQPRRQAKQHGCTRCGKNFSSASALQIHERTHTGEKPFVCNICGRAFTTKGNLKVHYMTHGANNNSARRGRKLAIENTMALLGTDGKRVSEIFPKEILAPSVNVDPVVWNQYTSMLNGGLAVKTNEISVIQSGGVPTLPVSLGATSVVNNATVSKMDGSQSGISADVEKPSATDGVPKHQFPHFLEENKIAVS
Method: universal PBM
Form: double-stranded DNA, one strand shown
Sample: in vitro
Tested at: 600 nM
Notes: 8-mer, flanks averaged, mean of replicates
Reading: higher = stronger binding
Sequence	E-score
ATGGGATA	0.0974
CACCGACC	-0.281
AACGCAGC	-0.161
GAAGTTGA	-0.125
AAGCCCCA	-0.309
ACAGGCGG	-0.244
CCTCAGAC	-0.115
ACTTGCTG	0.0144
CCGCAGCA	-0.233
CCTATGAG	0.0365
TAGCGTGA	0.0712
GAAGGTGC	-0.215
ACGGTCGG	-0.314
GTACAGAC	0.126
AGTGCTCG	-0.2
CCTTGCAG	-0.289
CATAAGGA	0.102
AGTTTGGG	0.00171
CACAACTC	0.142
ATGTGTTC	0.0396

Block 2
Target: RING finger protein unkempt homolog, zinc fingers 1-6, GST-SBP tag (UNK, Homo sapiens, UniProt Q9C0B0, residues 30-357)
Chain of UniProt Q9C0B0 (30-357, looked up): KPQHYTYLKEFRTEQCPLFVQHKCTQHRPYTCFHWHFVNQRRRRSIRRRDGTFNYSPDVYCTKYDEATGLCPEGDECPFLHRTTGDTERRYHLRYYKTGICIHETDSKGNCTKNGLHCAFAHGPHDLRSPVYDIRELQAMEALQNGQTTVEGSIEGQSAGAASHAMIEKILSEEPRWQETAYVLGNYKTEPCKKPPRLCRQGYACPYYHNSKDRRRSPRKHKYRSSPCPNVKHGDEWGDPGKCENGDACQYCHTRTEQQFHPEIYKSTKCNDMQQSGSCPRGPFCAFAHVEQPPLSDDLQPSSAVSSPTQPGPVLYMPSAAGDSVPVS
Method: RNA Bind-n-Seq
Form: RNA
Sample: in vitro
Tested at: not given
Notes: RNA with constant flanks, human-mouse chimeric sites, ends assumed
Baseline: input RNA pool
Reading: higher = stronger binding
All sequences stand within: GGGAGUUCUACAGUCCGACGAUC … CAACAGAGGAUUGAGCAUCA
Sequence	bound/input enrichment [ratio]
CCAAUUGUGGAGCAGUACUUGAAGACAAAAAAGAACUCUAAUAAUUUAAUCAUCAAGUACAUUAGCUGCCGCCUGCUGACAUUUGUGAUUAUACUGUUAGCGUGUAUCUACCUGGGCUAU	0.383
AUGCAGUAUGAGACCAACAGCAUGGACUUCAAAGUUGGGGCAGAUGGGACAGUCUUCGCCACCCGGGAGCUGCAGGUCCCCUCCGAGCAGGUGGCGUUUACCGUCACUGCAUGGGACAGC	0.124
CCUGCUCAGAUCACCAUGAAAGUAAUCCAAGGCUUGUACAGUGGGGUCACCACAGUGGAACUGGACACCCUGGCUGCUGAGACAGCCGCGACCUUGACCACGAAGCACCCUGACUAUGCC	0.125
UAAGUCCUGUGCCAGCACUUCGCUCAUAAAGUUUUAAAUUCUGGACCAAUAGUGUUUGUUUCCUGAUUUUUGUAUUCAAUACUUUGCCUAGUAUGUAACUCAUGCUUACUGAUAAUAAAA	0.469
UAAAUUAGGGCUGCCGUUUUCUGUUUCUCCCUGGGCUGCGGAAAGCCAGGCGGUUUUAUCUAGCUUAAACCAGGCUGCUGGUGUUCCCUCUUUUUUUCCACGAGGGUGUUUUUGGCUGCA	0.85
ACAGUUAUAUUGUUGAGUUUCAUUUUCAUAUAUUCUUAUGGUGUCUGCUUGCCUGUGACUUCUGGUAAAAUAAAAUAAGCCUUUGAAAAUAUUUUAGCAUGGUAUUUUUCUAAAAAUAAA	1.36
AUAAAAGCUAUGUUGAGUGGUCCAGGUCAGUUUGCUGAGAAUGAAACCAACGAGGUCAAUUUUAGAGAGAUCCCCUCACAUGUGCUAUCAAAAGUGUGCAUGUAUUUUACGUACAAGGUC	0.508
AAAUCGUGUGUGUCCAAUAUUGAAAGUGCUUUAUCUACACUCCAGUAUGUAAGCAGCAUAGUAGUUUCUUUAGAGAAUAGGUCAGCCAUUGUAAAGUACAAUGCAAGCUCAGUCACUCCA	34.3
GAAACUAUUCCUAAAGAGGAGAGAGCUGAAAAGGAAGCUCGGAGAUCAUCUCUUGAGAAACAUAGAAAAGAAAAGCCUUUUAAAACCGGGAGAGGCAGAAUUUCCACUCCUGAAAGAAAA	0.408
UAAGUCCUGUGCCAGCACUUCGCUCAUAAAGUUUUAAAUUCUGGACCAAUAGUGUUUGUUUCCUGAUUAUUGUAUCCAAUACUUUGCGUACUAUGUGACUCACUCUUACUGAUAAUAAAA	1.11
GCUGAAAAUGAAGAAGAGGCAGCUGAUGUCUGGUACAACCUGGGGCACAUAGCUGUGGGAAUCGGAGAUACAAAUUUGGCCCACCAAUGCUUCAGGCUGGCCCUGGUCCACAACAACCAC	0.161

Block 3
Target: RNA binding protein fox-1 homolog 2, RRM domain, GST-SBP tag (RBFOX2, Homo sapiens, UniProt O43251-10, residues 100-194)
Method: RNA Bind-n-Seq
Form: RNA
Sample: in vitro
Tested at: 365 nM
Notes: natural RNA segment, single round, ends assumed
Baseline: no-protein control
Reading: higher = stronger binding
All sequences stand within: GGGAGUUCUACAGUCCGACGAUC … UGGAAUUCUCGGGUGCCAA
Target sequence (chain): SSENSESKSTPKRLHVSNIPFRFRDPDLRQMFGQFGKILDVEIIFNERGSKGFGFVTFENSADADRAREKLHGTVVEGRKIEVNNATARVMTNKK
Sequence	RBNS enrichment (R)
UCUUUGCCAGUAAUGGGACACUUCUUUUGGCAUUUCUUGCAGAGUGCUUUUGAGGGACUUGGCUGUACCUCUCUUUGACUAGGAUAUCCCUGAAAGUUGGCCCUUGGUGU	0.581
UCACGAAGUAGGUUUCCUCUGGCUCCCUACAGAGCAAUAUUCCAAAGGAACAUUUUAACUGUAAAGGCUAGAGACAAGAAGACAAAAGAGUAGAUCAUUUUAAUAAGAAU	0.312
UCUGCCGAGUGAGGGCGGCUCCCCAGGGACCAGAGGAAGCCGGGAAAAGAGGCCCAUGGCGUCGAGCCCAGCCCUGACCGCCAGCUGGCUGAGGUCGUGCCCUGCUGGGC	0.556
CUUAAAACAGAAUUAUUUCUAUACACACACCUGAAUACUUUGACAAUGAGAUUUAACUUGUUGAAUGUGUUCUGUGAGAUGGGGUGUACCACGACUAUGGUGGGAAAAAC	0.318
AGUCCUUACCUCUGUCGGCAGCUCAGAGCCUCCACAUUUUUAUAUUUAAUUCUCAUGAUAAAUUAGCCACCAUAAUCCCAUGGAAUUAGGUCUUGUUAAAAUCUAGUCCG	0.504
AACUAAAUAGAAAGCUAGUUGUUCCGCAGAUAGGAGUAGUCUUUAUUGUCCUGUACGGUCGGUGGCAGUGCUAUUCUGAGAUCUGUAGAUGCUUAGAAUAUCAGUAUUUU	0.526
AGGAGUCACCAGAUCAUCUGGCUCAGAUGCUCAGGAUGUAUUCCUUUGGCUUACCCCGUGCUCCUGGGUUCUAUGGUGUUUCUAUAAUUAUGAAUAGUGUUGCACUGUAA	0.203
GGGAAAUAAUGUCCAUGCCAUUGUGUGUGGAAGAUUUACAGCUAAGCUGUAGUUGCAGAGUACAUGUACAGUAAUGAAGUUCACUGUGUUUAUAAACUGAAAAGGUACCG	0.255
GCAUCUUGGUUCCUUUACACAGCUUGAAGGGGCAGCCUGCACAGACUGAAAUAUCUUGACAGUUGAGAUGUGGUCAGGUGAAAAGCUACAUCUCCAUUACAAGUUGGAAC	0.746
UAAGACCUGGGUUUGGUUCUCAGCACCCAUGUGGCAACUUACAACCAUCCAUAGCUCCAGAUCCAGGGCAUCCAUUGCACCAGGUACACAUGCAGUGCACUUACAAACUU	0.236
CUCUAAAAUUAAAUUUUACAUAAAAGUUAGUUUUAUUCACCUUUAGGCUUUCCAAGUGAAUUGUGACUAAUUUUUUCAAUCUUACAUAGAUCUUUCACCCAUUAGCAUUA	1.23
UUUUUGUGUUAGUGUAUCAUAUAAUUGAAUUUGAACAAGAUACAUAUUUUUCUGCAUACAAAUUUAUGAAGCUGGAGUCUACCAAACACAGCUUUAGUCACAAAAGUUAG	1.38

Block 4
Target: Histone acetyltransferase KAT6A, both winged helices, GST fusion (KAT6A, Homo sapiens, UniProt Q92794, residues 1-181)
Method: protein binding microarray
Form: double-stranded DNA, one strand shown
Sample: in vitro
Tested at: not given
Notes: 8-mer, flanks averaged, mean of 2 arrays, mostly near background
Baseline: not given
Reading: higher = stronger binding
Residues (chain): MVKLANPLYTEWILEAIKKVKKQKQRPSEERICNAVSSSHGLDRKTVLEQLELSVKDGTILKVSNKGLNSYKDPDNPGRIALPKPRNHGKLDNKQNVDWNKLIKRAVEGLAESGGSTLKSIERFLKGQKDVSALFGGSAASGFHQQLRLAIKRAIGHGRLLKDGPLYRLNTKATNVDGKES
Sequence	E-score
AGACCTTC	0.00817
AGGCAGCC	-0.112
GGCTTGGA	-0.0973
AACGTCCT	-0.000115
AACTGCAT	-0.113
GGTGGCCA	-0.204
AGCTTAAC	-0.0548
GGTTTTAA	0.0109
CCCGACCC	0.0409
CTCGTACC	0.0166
CCTAACCC	0.011
GCTATTGA	0.00639
ATGTCTCG	-0.0486
CAATTAGC	0.094
CCCAACCA	-0.212
ATTCTCAA	-0.14
CTGGTTCA	-0.0679
CCCATATA	0.0381
CCGGCTAG	0.152
TCGCTACA	0.0568
GGGTTAAC	0.112
CGCAGGAC	0.104
CGTATAGC	0.156
GACACGTA	-0.0275
ATCGAAAA	-0.0474

Block 5
Target: Ras GTPase-activating protein-binding protein 1, C-terminal RGG region (G3BP1, Homo sapiens, UniProt Q13283)
Chain of UniProt Q13283 (whole entry, looked up): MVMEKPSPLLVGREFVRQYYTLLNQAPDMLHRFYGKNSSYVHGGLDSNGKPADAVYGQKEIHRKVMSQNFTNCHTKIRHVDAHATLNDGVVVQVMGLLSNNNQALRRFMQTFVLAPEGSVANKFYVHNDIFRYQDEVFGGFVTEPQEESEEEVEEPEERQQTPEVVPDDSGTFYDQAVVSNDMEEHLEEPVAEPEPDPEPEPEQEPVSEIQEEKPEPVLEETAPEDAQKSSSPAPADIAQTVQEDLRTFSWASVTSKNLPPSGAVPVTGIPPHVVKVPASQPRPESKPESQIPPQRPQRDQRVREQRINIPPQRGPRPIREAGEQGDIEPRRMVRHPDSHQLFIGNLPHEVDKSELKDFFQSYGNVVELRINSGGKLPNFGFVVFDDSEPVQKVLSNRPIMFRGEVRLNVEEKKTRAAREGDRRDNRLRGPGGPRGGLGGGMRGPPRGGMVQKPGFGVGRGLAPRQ
Method: RNA Bind-n-Seq
Form: RNA
Sample: in vitro
Tested at: 1 µM
Notes: whole 134-nt RNA, ends assumed
Together with: 150 mM KCl
Baseline: input library
Reading: higher = stronger binding
All sequences stand within: GGGAGUUCUACAGUCCGACGAUC … UGGAAUUCUCGGGUGUCAAGG
Sequence	log2 enrichment
UGGGAGGUGGAUUUUGUUUAUUUUUUUAGCUCAUUUCCAGGGGUGGAAAUUUUUUUUUAAUAUGUGUCAUGAAUAAAGUUGUUUUUGAAA	3.06
CCUGUGCUACACAUCGUAUGUACCGAAUCGGGGUUUUUGGGGUUUUUGGGGAAAAAGGGGAAAGUAUUAUGUUACGCCGUUCGGAUCUGC	0.146
UGGGAGGUGGAUUUUGUUUAUUUUUUUAGCUCAUUUCCAGGGGUGGGAAUUUUUUUUAAAUAUGUGUCAUGAAUAAAGUUGUUUUUGAAA	3.62
CUCAAGUCCUGUGCUACACAUCGUAUGUACCGAAUCGGAGGAGGUUUUUUUGGAAAGUAUUAUGUUACGCCGUUCGGAUCUGCACUUCCA	-1.23
UCGGAUGGCUUCGCAUUUCCCCAAUACCCCAUUAAACCGUAUCAUCUGAAGAGGAUCCACAGAGCUGUCUUACAUGGUAAUCUAGAGAAA	-0.797
GCAGGAAGUAAAAACAAAUGGAAAUGCUUAGGAUAGUGGCAGGGGUGGGGGUUGCUAAGGAAAGGGUGGGAUGGGAGUGGGUAAAGAGUU	2.31
CACAGACAACACGCACCCACACAGACACAGAGGGAAGGGGUUGGGAAGGGGACAGGGUGCACAGCAGGGCGGGGUAGGACCCCAGCCCCU	-0.89
AAGUCCUGUGCUACACAUCGUAUGUACCGAAUCGGGGAAAAGGAAAAGGGAAAAGGGAAAGUAUUAUGUUACGCCGUUCGGAUCUGCACU	-1.63
GUCCUGUGCUACACAUCGUAUGUACCGAAUCGGGGUUUUUGGGGAAAGGGGAAAGGGGAAAGUAUUAUGUUACGCCGUUCGGAUCUGCAC	3.68
UAACUUUAGAGGAGGAUCUGAUGGAUGUGGCAGUGGACGUGGAUUUGGGGAUGGCUAUAAUGGGUAUGGAGGAGGACCUGGAGGUGGCAA	-1.52
AGGACGUGCAGAACUUCCUCUCUGACUGCACGAUUCAUGAUGGGGCCGCAGGUGUCCAUUUCAUCUACACUAGAGAGGGCAGGCAGAGUG	-0.0876
ACCAUGAAAGUGGGCAUCUUUGGGAAGUGGGGCAAGGGGGGGAUAGGGAGGGGGGUAACACUUUGGGAACAGGUGGUCCCAGGUCGUUUC	-0.838
UGGGAGGUGGGUUUUGUUUAUUUUUUUAGCUCAUUUCCAGGGGUGGGAAUUUUUUUUUAAUAUGUGUCAUGAAUAAAGUUGUUUUUGAAA	2.67
CUCAAGUCCUGUGCUACACAUCGUAUGUACCGAAUCGGAGGAAAAAGGUUUGGAAAGUAUUAUGUUACGCCGUUCGGAUCUGCACUUCCA	-1.27

For quick reference, copied from above (block 4):
Sequence	E-score
CCCATATA	0.0381
TCGCTACA	0.0568
AACGTCCT	-0.000115
AGCTTAAC	-0.0548
CTGGTTCA	-0.0679
GCTATTGA	0.00639
